Measured values from different studies.
Protocols differ between the studies behind these lines. ± gives the spread as reported.

Structure (SMILES) = CC[C@H](C)[C@H](NC(=O)[C@H](CCCCN)NC(=O)CNC(=O)[C@H](CC(C)C)NC(=O)[C@H](Cc1ccccc1)NC(=O)[C@H](CCCCN)NC(=O)[C@H](CO)NC(=O)[C@H](Cc1ccccc1)NC(=O)[C@H](Cc1c[nH]c2ccccc12)NC(=O)[C@H](CCC(N)=O)NC(=O)[C@@H](NC(=O)[C@H](Cc1ccccc1)NC(=O)CCCCCNC(=O)CN1CCN(CC(=O)O)CCN(CC(=O)O)CCN(CC(=O)O)CC1)C(C)C)C(=O)N[C@@H](CCC(=O)O)C(=O)N1CCC[C@H]1C(=O)N[C@@H](CC(=O)O)C(=O)N[C@H](C(=O)N[C@@H](CO)C(=O)N[C@@H](CCC(N)=O)C(=O)N[C@H](C(=O)N[C@@H](CCC(N)=O)C(=O)N[C@@H](CC(=O)O)C(=O)N1CCC[C@H]1C(=O)N[C@@H](CC(N)=O)C(=O)N[C@@H](CC(=O)O)C(=O)N[C@@H](CCC(N)=O)C(=O)N[C@@H](Cc1ccc(O)cc1)C(=O)N[C@@H](CCC(=O)O)C(=O)N1CCC[C@H]1C(=O)N[C@@H](Cc1ccccc1)C(=O)O)C(C)C)C(C)C [copper-64 labelled]; system = C57BL/6 mice, brain; setting = vehicle, intratracheal instillation; measurement = tissue uptake; result = 0.11 ± 0.02 %ID/g
Structure (SMILES) = C[C@H](NC(=O)CNC(=O)[C@@H]1CCCN1C(=O)[C@H](CO)NC(=O)CNC(=O)[C@H](CO)NC(=O)[C@H](C)NC(=O)[C@H](CC(N)=O)NC(=O)[C@H](C)NC(=O)[C@H](CO)NC(=O)[C@H](C)NC(=O)[C@H](CO)NC(=O)[C@@H]1CCCN1C(=O)[C@H](Cc1ccccc1)NC(=O)[C@H](C)NC(=O)[C@H](CO)NC(=O)[C@@H]1CCCN1C(=O)[C@H](Cc1ccccc1)NC(=O)[C@@H](NC(=O)[C@H](CC(=O)O)NC(=O)[C@@H](N)CO)[C@@H](C)O)C(=O)N[C@@H](CCCNC(=N)N)C(=O)N[C@@H](CO)C(=O)O; system = CHO-K1 culture medium; setting = 60 min; measurement = remaining peptide; result = 1.02%
Structure (SMILES) = CC[C@H](C)[C@@H]1NC(=O)[C@H](Cc2ccc(O)cc2)NC(=O)[C@@H](N)CSCSC[C@@H](C(=O)N2CCC[C@H]2C(=O)N[C@@H](CC(C)C)C(=O)NCC(N)=O)NC(=O)[C@H](CC(N)=O)NC(=O)[C@H](CCC(N)=O)NC1=O; system = phosphate buffer; setting = 0.1 mg/mL, pH 2.0, 40 °C; measurement = half-life; result = 26.9 days
Structure (SMILES) = CC(C)C[C@H](NC(=O)CCS[C@H]1O[C@H](CO)[C@@H](O)[C@H](O)[C@H]1O)C(=O)N1CCC[C@H]1C(=O)N[C@@H](Cc1ccccc1)C(=O)N[C@@H](Cc1ccccc1)C(=O)N[C@@H](CC(=O)O)C(=O)N[C@@H](CC(=O)O)C(=O)N[C@@H](C)C(=O)N[C@@H](Cc1c[nH]cn1)C(=O)N[C@@H](CCCCN)C(N)=O; assay = RP-HPLC; system = 50% human serum; setting = 100 µM, 24 h, 37 °C; measurement = intact peptide remaining; result = 84%
Structure (SMILES) = CSCC[C@H](N)C(=O)N[C@@H](C)C(=O)N[C@@H](CCCNC(=N)N)C(=O)N[C@@H](CCCNC(=N)N)C(=O)N[C@@H](CC(=O)O)C(=O)N[C@@H](CCCCN)C(=O)N[C@H](C(=O)N[C@@H](CC(=O)O)C(=O)N[C@@H](Cc1ccccc1)C(=O)N[C@@H](C)C(=O)N[C@@H](CCCNC(=N)N)C(=O)N[C@@H](CCCNC(=N)N)C(=O)N[C@@H](CCCNC(=N)N)C(=O)N[C@@H](CCCNC(=N)N)C(=O)NCCCCCC(=O)NCCCCC(NC(=O)CCCCCNC(=O)[C@H](CCCNC(=N)N)NC(=O)[C@H](CCCNC(=N)N)NC(=O)[C@H](CCCNC(=N)N)NC(=O)[C@H](CCCNC(=N)N)NC(=O)[C@H](C)NC(=O)[C@H](Cc1ccccc1)NC(=O)[C@H](CC(=O)O)NC(=O)[C@@H](NC(=O)[C@H](CCCCN)NC(=O)[C@H](CC(=O)O)NC(=O)[C@H](CCCNC(=N)N)NC(=O)[C@H](CCCNC(=N)N)NC(=O)[C@H](C)NC(=O)[C@@H](N)CCSC)[C@@H](C)O)C(=O)NCCCCC(NC(=O)C(CCCCNC(=O)CCCCCNC(=O)[C@H](CCCNC(=N)N)NC(=O)[C@H](CCCNC(=N)N)NC(=O)[C@H](CCCNC(=N)N)NC(=O)[C@H](CCCNC(=N)N)NC(=O)[C@H](C)NC(=O)[C@H](Cc1ccccc1)NC(=O)[C@H](CC(=O)O)NC(=O)[C@@H](NC(=O)[C@H](CCCCN)NC(=O)[C@H](CC(=O)O)NC(=O)[C@H](CCCNC(=N)N)NC(=O)[C@H](CCCNC(=N)N)NC(=O)[C@H](C)NC(=O)[C@@H](N)CCSC)[C@@H](C)O)NC(=O)CCCCCNC(=O)[C@H](CCCNC(=N)N)NC(=O)[C@H](CCCNC(=N)N)NC(=O)[C@H](CCCNC(=N)N)NC(=O)[C@H](CCCNC(=N)N)NC(=O)[C@H](C)NC(=O)[C@H](Cc1ccccc1)NC(=O)[C@H](CC(=O)O)NC(=O)[C@@H](NC(=O)[C@H](CCCCN)NC(=O)[C@H](CC(=O)O)NC(=O)[C@H](CCCNC(=N)N)NC(=O)[C@H](CCCNC(=N)N)NC(=O)[C@H](C)NC(=O)[C@@H](N)CCSC)[C@@H](C)O)C(N)=O)[C@@H](C)O (stereo partly shown); system = C57BL/6 mouse female, spine; setting = dose not given, 3 h; how to read = reference: total; measurement = mean tissue distribution; result = 7.17%
Structure (SMILES) = C#Cc1c(F)ccc2cc(O)cc(-c3ncc4c(N5CC6CCC(C5)N6C(=O)OC(C)OC(=O)C(CCCC)CCCC)nc(OC[C@@]56CCCN5C[C@H](F)C6)nc4c3F)c12 (stereo partly shown); assay = refers to: prodrug; system = mouse whole blood; setting = 1 µM; measurement = t1/2; result = 0.0688 days
Structure (SMILES) = O=C1NC2(CC2)COc2ncc(F)cc2[C@H]2COCCN2c2ccn3ncc1c3n2; system = Sprague-Dawley rat, female, brain; setting = oral, 10 mg/kg/day, 4 weeks dosing, end of recovery; measurement = organ-to-body weight ratio; result = 0.662 ± 0.09%
Structure (SMILES) = CCCCCCCCCCCCCCCC(=O)N[C@@H](CCC(=O)NCCOCCOCCC(=O)NCCOCCOCCC(=O)NCCCC[C@H](NC(=O)[C@H](CC(=O)O)NC(=O)[C@H](CC(C)C)NC(=O)[C@H](Cc1ccc(O)cc1)NC(=O)[C@H](CCCCN)NC(=O)[C@H](CO)NC(=O)[C@H](Cc1ccc(O)cc1)NC(=O)[C@H](CC(=O)O)NC(=O)[C@H](CO)NC(=O)[C@@H](NC(=O)[C@H](Cc1ccccc1)NC(=O)[C@@H](NC(=O)CNC(=O)[C@H](CCC(N)=O)NC(=O)[C@@H](CO)NC(=O)[C@@H](N)Cc1c[nH]cn1)[C@@H](C)O)[C@@H](C)O)C(=O)N[C@@H](CCCNC(=N)N)C(=O)N[C@@H](CCCNC(=N)N)C(=O)N[C@@H](C)C(=O)N[C@@H](CCC(N)=O)C(=O)N[C@@H](CC(=O)O)C(=O)N[C@@H](Cc1ccccc1)C(=O)N[C@H](C(=O)N[C@@H](CCC(N)=O)C(=O)N[C@@H](Cc1c[nH]c2ccccc12)C(=O)N[C@@H](CC(C)C)C(=O)N[C@@H](CC(C)C)C(=O)N[C@@H](CC(N)=O)C(=O)N[C@H](C(=O)NCC(=O)NCC(=O)N1CCC[C@H]1C(=O)N[C@@H](CO)C(=O)N[C@@H](CO)C(=O)NCC(=O)N[C@@H](C)C(=O)N1CCC[C@H]1C(=O)N1CCC[C@H]1C(=O)N1CCC[C@H]1C(=O)N[C@@H](CO)C(N)=O)[C@@H](C)O)C(C)C)C(=O)O; system = rhesus monkey, female, plasma; setting = subcutaneous, 60 µg/kg, day 1, toxicokinetics, mean; measurement = AUC(0-t); result = 565 ng·h/mL
Structure (SMILES) = C[C@H](O)[C@@H](NC(=O)[C@H]1CCCN1C(=O)[C@@H](CCCCN)NC(=O)[C@@H](CO)NC(=O)[C@@H](Cc1ccc(O)cc1)NC(=O)[C@@H](CC(N)=O)NC(=O)CCOCCOCCOCCNC(=O)CN1CCN(CC(=O)O)CCN(CC(=O)O)CCN(CC(=O)O)CC1)C(=O)N[C@H](CC(=O)O)C(=O)N[C@H](CCCNC(=N)N)C(=O)N[C@H](CCC(N)=O)C(=O)N[C@H](Cc1ccc(O)cc1)C(=O)N[C@H](Cc1c[nH]cn1)C(=O)N[C@H](Cc1ccccc1)C(N)=O [gallium-68 labelled]; system = BALB/c nude mice U-87 MG tumour, brain; setting = intravenous, 1.85 MBq, 0.08333 h, radiolabelled; measurement = tissue uptake; result = 0.19 ± 0.04 %ID/g
Structure (SMILES) = CC(C)C[C@@H](NC(=O)[C@@H](CCCNC(=N)N)NC(=O)[C@@H](Cc1c[nH]cn1)NC(=O)[C@@H](Cc1c[nH]c2ccccc12)NC(=O)[C@@H](Cc1c[nH]cn1)NC(=O)[C@@H](Cc1ccccc1)NC(=O)[C@H](NC(=O)[C@@H](Cc1ccc(O)cc1)NC(=O)CNC(=O)CNC(=O)CCOCCOCCOCCNC(=O)CN1CCN(CC(=O)O)CCN(CC(=O)O)CC1)[C@H](C)O)C(=O)N[C@H](CC(N)=O)C(=O)N1CCC[C@@H]1C(=O)O [gallium-68 labelled]; system = C57BL/6 mice, male, stomach; setting = intravenous, 1.85 MBq, 60 min, added: GP12 blocking; measurement = tissue uptake; result = 0.91 ± 0.46 %ID/g
Structure (SMILES) = C[C@@H]1COCCN1c1nc(NCc2cccnc2C(F)(F)F)c2cccnc2n1; assay = metabolic stability; system = rat, hepatocytes; measurement = hepatocyte CLint; result = 16 µL/min/10⁶ cells
Structure (SMILES) = COc1ccc([C@@H]2CC(=O)c3c(O)cc(O[C@@H]4O[C@H](CO)[C@@H](O)[C@H](O)[C@H]4O[C@@H]4O[C@@H](C)[C@H](O)[C@@H](O)[C@H]4O)cc3O2)cc1O; system = male Sprague-Dawley rats, lean, urine; setting = oral, 100 mg/kg, 48 to 36 h, total after deconjugation; measurement = urinary excretion; result = 3.28 ± 1.44 ng
Structure (SMILES) = CC(C)[C@H](NC(=O)[C@@H](NC(=O)[C@H](CCCNC(=N)N)NC(=O)[C@H](CCCNC(=N)N)NC(=O)[C@H](CCCNC(=N)N)NC(=O)[C@H](CCC(N)=O)NC(=O)[C@H](CCCNC(=N)N)NC(=O)[C@H](CCCNC(=N)N)NC(=O)[C@H](CCCCN)NC(=O)[C@H](CCCCN)NC(=O)[C@H](CCCNC(=N)N)NC(=O)CN)[C@@H](C)O)C(=O)N[C@H](C(=O)N[C@@H](CO)C(=O)N1CCC[C@H]1C(=O)O)[C@@H](C)O; system = ICR mice, female, liver; setting = intranasal, 5 mg/kg daily, 4 weeks; measurement = organ weight; result = 1.39 ± 0.351 g
Structure (SMILES) = CC(CCC(=O)NCC(=O)O)C1CCC2C3C(O)CC4CC(OC5OC(C(=O)O)C(O)C(O)C5O)CCC4(C)C3CCC12C (stereo not shown); system = men, T/T genotype, plasma; setting = dose not given, geometric mean; measurement = glucuronide to parent ratio; result = 0.084
Structure (SMILES) = Cc1ccccc1-c1ccc(-c2nc(-c3ccc(CN(C)CCCC(=O)O)c([18F])c3)no2)cc1C(F)(F)F; system = rat, heart; setting = 30 min; measurement = tracer uptake; result = 0.38 %ID/g
Structure (SMILES) = CN1Cc2cc(Cl)ccc2-n2c(nnc2C2CCN(c3cccc(F)n3)CC2)C1; system = Sprague-Dawley rats male, pituitary; setting = intravenous, 0.03 mg/kg, 5 min; measurement = concentration; result = 38.7 ± 5.71 ng/mL
Structure (SMILES) = CC[C@H](C)[C@H](NC(=O)[C@H](CCCNC(=N)N)NC(=O)[C@H](CCCCN)NC(=O)[C@H](Cc1ccc(O)cc1)NC(=O)[C@H](CC(=O)O)NC(=O)[C@H](C)NC(=O)CNC(=O)CCOCCOCCOCCNC(=O)CN1CCN(CC(=O)O)CCN(CC(=O)O)CCN(CC(=O)O)CC1)C(=O)N[C@H](C(=O)N[C@@H](CC(C)C)C(=O)N[C@@H](CCCCN)C(=O)N[C@H](C(=O)N[C@@H](CC(N)=O)C(N)=O)C(C)C)[C@@H](C)O [copper-64 labelled]; assay = ex vivo gamma counting; system = C57BL/6J male mice, B16-F10 tumour, bone; setting = intravenous, 1.85 MBq, 5 min; measurement = tissue uptake; result = 1.26 ± 0.126 %ID/g
Structure (SMILES) = CCCCC[C@@H]1NC(=O)[C@@H](C)N(C)C(=O)[C@H](CCCCC)NC(=O)[C@@H](C)N(C)C(=O)[C@H](CCCCC)N(C)C(=O)[C@@H](C)N(C)C(=O)[C@H](CCCCC)NC(=O)[C@@H](C)N(C)C1=O; assay = PAMPA, HPLC-UV; setting = 500 µM, pH 7.4; measurement = log Papp; result = -5.57 ± 0.06
Structure (SMILES) = CNC(=O)C[C@H](Cc1ccc(F)cc1)NC(=O)[C@@H](Cc1ccc(Cl)cc1Cl)NC(=O)[C@H](N)Cc1ccccc1C#N; assay = metabolic stability; system = CD-1 mouse, liver microsomes; setting = 1 µM; measurement = microsomal CLint; result = 794 µL/min/mg
